Results of several laboratories.
± marks the error that the study gave.

CNS(=O)(=O)Nc1nccc(Cc2c(C)c3ccc(Oc4ncccc4F)cc3oc2=O)c1F — IC50 (HT; cell viability, CellTiter-Glo; 7 days): > 1 µM
CCN(C(=O)c1cc(F)ccc1Oc1nncnc1N1CCC2(C1)CN([C@H](CCCN(C)CCOC)C(C)C)C2)C(C)C — GI50 (SU-DHL10; cell growth or viability; 72 h): > 10 µM
COC(=O)c1cc(NC2=NC(=O)C(=Cc3ccc(N(C)C)cc3)S2)ccc1OC(C)=O — metabolite level (MCF7; GC-MS, item: Trimethylamine; 1 µM; reference: DMSO): -0.53 fold change
O=C(C[Se]C(=O)c1ccccc1Nc1cccc(C(F)(F)F)c1)Nc1cccc(C(F)(F)F)c1 — mean TGI (NCI60 renal subpanel; total growth inhibition, inhibitor; five-dose): 3.77 µM
CCN(CC)CC(=O)Nc1cccc(-n2cc(-c3ccc4ccc(-c5cn(-c6cccc(NC(=O)CN(CC)CC)c6)nn5)cc4c3)nn2)c1 — fold regulation (RCC4; PCR angiogenesis array, item: FN1; 5 x IC50, 4 h, normoxia; reference: untreated): -1.17
C=CC(=O)N1CCCC(n2c(=O)c3ncccc3n(Cc3ccc(Oc4ccccc4)cc3)c2=O)C1 (stereo not drawn) — IC50 (OCI-Ly7; cell growth or viability, MTT; 72 h): 5 µM
COc1ccc(CNc2ccc3c(c2)S(=O)(=O)C=C3)cc1 — MCP-1 secretion (U-87 MG, temozolomide-resistant; 5 µM, 24 h; reference: control): 50%
O=C(NCc1ccc(OC(F)(F)F)cc1)[C@H]1CCCN(c2ncnc3[nH]c(-c4cccnc4)cc23)C1 — inhibition (NCI-H2228; cell growth or viability, MTT; 0.04 µg/mL, 72 h): 53.2%
CO[C@@H]1[C@@H](OC(N)=O)[C@@H](O)[C@H](Oc2ccc3c(O)c(NC(=O)c4ccc(O)c(CC=C(C)C)c4)c(=O)oc3c2C)OC1(C)C — colony survival (DLD-1 BRCA2-/-; 150 µM, replicate B; reference: untreated): 0.312%
COc1cccc(OC)c1-c1cc(C(=O)NC2(C(=O)O)C3CC4CC(C3)CC2C4)nn1-c1ccc(C(=O)N(C)CCOCCN(C)C(=O)[C@H](CCCCNC(=O)[C@H](CC(C)C)NC(=O)C2OC2C(=O)O)NC(=O)CN2CCN(CC(=O)[O-])CCN(CC(=O)[O-])CCN(CC(=O)[O-])CC2)cc1C(C)C.[177Lu+3] (mixture of isomers) — internalized fraction (HT-29; concentration not given, 30 min; reference: added activity): 2.69 ± 0.2%
Cc1cc(Cl)cc(-c2ccnc3cc(CN4C(=O)C5C(C4=O)C5(C)C)sc23)c1C[C@@H]1CNCCO1 (stereo partly drawn) — viability (CHP-212; SRB; 0.3125 µM): 51.2%
Cc1cc(N2CCCCC2)ccc1-c1cc2c(N3CCC[C@H](C(=O)NCc4ccc(OC(F)(F)F)cc4)C3)ncnc2[nH]1 — inhibition (NCI-H2228; cell growth or viability, MTT; 0.008 µg/mL, 72 h): 12.3%
CN1CCCNC(=O)c2cccc(c2)C(=O)NCCCN(C)CCCNc2cccc3c2C(=O)c2cccc(c2C3=O)NCCC1 — log2 fold change (SAS; RNA-Seq, item: MEAF6 mRNA; 1 µM, 6 h; reference: untreated cells): -0.488
Cc1cc(NC2CCN(C)CC2)ccc1-c1cc2c(N3CCC[C@H](C(=O)N4CCCCC4)C3)ncnc2[nH]1 — inhibition (NCI-H2228; cell growth or viability, MTT; 1 µg/mL, 72 h): -3.18%
Cc1ccc(C(C)C)c(OCc2ccc(C(=O)N/N=C/c3cccc(O)c3O)cc2)c1 — Emax (LDR; silenced CMV-GFP reporter derepression, qHTS): 35%
Cc1ncsc1-c1ccc(C(C)NC(=O)C2CC(O)CN2C(=O)C(NC(=O)CCCCCCCCCCN2CCCC(Nc3ncc(Cl)c(Nc4ccccc4S(=O)(=O)C(C)C)n3)C2)C(C)(C)C)cc1 (stereo not drawn) — log2 fold change (22Rv1; RNA-seq, item: ZBTB37 mRNA; concentration not given; reference: DMSO): -1.83
Cc1cc(NC2CCN(C)CC2)ccc1-c1cc2c(N3CCC[C@H](C(=O)Nc4ccc(C(F)(F)F)cc4)C3)ncnc2[nH]1 — inhibition (NCI-H2228; cell growth or viability, MTT; 5 µg/mL, 72 h): 86%
CCC(=O)N1CCN(c2ccc(NC(=O)c3ccc([N+](=O)[O-])o3)cc2Cl)CC1 — efficacy (LDR; silenced CMV-GFP reporter derepression, qHTS): 50%

Excerpt of the above:
Cc1cc(NC2CCN(C)CC2)ccc1-c1cc2c(N3CCC[C@H](C(=O)Nc4ccc(C(F)(F)F)cc4)C3)ncnc2[nH]1 — inhibition (NCI-H2228; cell growth or viability, MTT; 5 µg/mL, 72 h): 86%
CCC(=O)N1CCN(c2ccc(NC(=O)c3ccc([N+](=O)[O-])o3)cc2Cl)CC1 — efficacy (LDR; silenced CMV-GFP reporter derepression, qHTS): 50%
